Measured values gathered from unrelated publications.
Lines come from different studies, so protocols differ. ± marks the error that the study gave.
SOS1: Son of sevenless homolog 1 (SOS1, Homo sapiens, UniProt Q07889)
Sequence of UniProt P01317 (whole entry, looked up): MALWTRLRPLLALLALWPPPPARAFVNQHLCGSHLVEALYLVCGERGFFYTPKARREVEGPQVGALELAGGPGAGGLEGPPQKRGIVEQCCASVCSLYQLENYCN

CC(C)N1CCN(c2nc(Nc3ccc4[nH]ccc4c3)nc3c2CCCC3)CC1 — Kd (SOS1; binding): > 200 µM
CN(C)c1ccc(-c2ccc3[nH]cc(-c4ccnc(N)n4)c3c2)cc1 — AUC (CD-1 mouse male, plasma; oral, 10 mg/kg): 2.3 µM·h
dmhA Y300F (Campylobacter jejuni) — Km (Nc1nc2c(ncn2[C@@H]2O[C@H](COP(=O)(O)OP(=O)(O)O[C@H]3O[C@H]([C@H](O)CO)[C@@H](O)[C@H](O)[C@@H]3O)[C@@H](O)[C@H]2O)c(=O)[nH]1; steady-state kinetics; pH 7.5, 30 °C): 15 µM
hdhb E18D/G39D/R40A/R41A/T17A (Clostridium sardiniense) — kcat/Km (NC(=O)c1ccc[n+]([C@@H]2O[C@H](COP(=O)(O)OP(=O)(O)OC[C@H]3O[C@@H](n4cnc5c(N)ncnc54)[C@H](O)[C@@H]3O)[C@@H](O)[C@H]2O)c1; steady-state kinetics; pH 8, 25 °C, cofactor varied): 68 M⁻¹ s⁻¹
COc1ccc(Nc2nc(N3CCN(C)CC3)c3ccccc3n2)cc1 — Kd (SOS1; binding): > 200 µM
Cl.O=c1sc2cc(Cc3ccccc3)ccc2n1CCN1CCCCCC1 — AUC (male CD-1 mouse, brain; oral, 50 mg/kg): 248 ± 37.8 ng·h/g
insulin — β-sheet content (Insulin (INS, Bos taurus, UniProt P01317); circular dichroism; 300 min): 35.5%
APP Aβ1-40, HiLyte Fluor 488 label (UniProt P05067) — Kd (microtubules, taxol-stabilized (Sus scrofa, UniProt P02550); fluorescence polarisation; quadratic fit, added: taxol): 5.33 ± 0.83 µM
SQETFSDLWKLLPENN — enrichment score (Cln2 (yeast); cell growth, competitive growth sequencing; peptide, Saccharomyces cerevisiae; peptide tiling library; direction not given): 1.07

Repeated from above:
insulin — β-sheet content (Insulin (INS, Bos taurus, UniProt P01317); circular dichroism; 300 min): 35.5%
